{"data": "Published values pooled from the literature", "note": "Parts stem from different laboratories: compare values within a part only.", "sequence of UniProt P54646 (whole entry, looked up)": "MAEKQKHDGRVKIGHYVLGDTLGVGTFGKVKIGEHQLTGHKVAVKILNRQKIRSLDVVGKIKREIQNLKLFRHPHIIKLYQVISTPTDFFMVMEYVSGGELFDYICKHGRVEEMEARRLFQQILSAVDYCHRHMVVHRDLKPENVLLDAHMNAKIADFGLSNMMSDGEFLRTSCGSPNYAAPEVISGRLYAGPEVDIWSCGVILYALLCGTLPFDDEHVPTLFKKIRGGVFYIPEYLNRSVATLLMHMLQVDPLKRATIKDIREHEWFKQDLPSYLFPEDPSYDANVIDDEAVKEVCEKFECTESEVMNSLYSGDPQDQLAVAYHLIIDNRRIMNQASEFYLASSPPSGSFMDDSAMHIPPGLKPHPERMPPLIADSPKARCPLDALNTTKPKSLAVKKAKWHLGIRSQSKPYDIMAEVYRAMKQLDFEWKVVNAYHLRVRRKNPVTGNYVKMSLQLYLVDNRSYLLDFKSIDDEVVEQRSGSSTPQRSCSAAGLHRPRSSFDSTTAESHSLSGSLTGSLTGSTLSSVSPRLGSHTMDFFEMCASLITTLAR", "sequence of UniProt Q5VT25 (whole entry, looked up)": "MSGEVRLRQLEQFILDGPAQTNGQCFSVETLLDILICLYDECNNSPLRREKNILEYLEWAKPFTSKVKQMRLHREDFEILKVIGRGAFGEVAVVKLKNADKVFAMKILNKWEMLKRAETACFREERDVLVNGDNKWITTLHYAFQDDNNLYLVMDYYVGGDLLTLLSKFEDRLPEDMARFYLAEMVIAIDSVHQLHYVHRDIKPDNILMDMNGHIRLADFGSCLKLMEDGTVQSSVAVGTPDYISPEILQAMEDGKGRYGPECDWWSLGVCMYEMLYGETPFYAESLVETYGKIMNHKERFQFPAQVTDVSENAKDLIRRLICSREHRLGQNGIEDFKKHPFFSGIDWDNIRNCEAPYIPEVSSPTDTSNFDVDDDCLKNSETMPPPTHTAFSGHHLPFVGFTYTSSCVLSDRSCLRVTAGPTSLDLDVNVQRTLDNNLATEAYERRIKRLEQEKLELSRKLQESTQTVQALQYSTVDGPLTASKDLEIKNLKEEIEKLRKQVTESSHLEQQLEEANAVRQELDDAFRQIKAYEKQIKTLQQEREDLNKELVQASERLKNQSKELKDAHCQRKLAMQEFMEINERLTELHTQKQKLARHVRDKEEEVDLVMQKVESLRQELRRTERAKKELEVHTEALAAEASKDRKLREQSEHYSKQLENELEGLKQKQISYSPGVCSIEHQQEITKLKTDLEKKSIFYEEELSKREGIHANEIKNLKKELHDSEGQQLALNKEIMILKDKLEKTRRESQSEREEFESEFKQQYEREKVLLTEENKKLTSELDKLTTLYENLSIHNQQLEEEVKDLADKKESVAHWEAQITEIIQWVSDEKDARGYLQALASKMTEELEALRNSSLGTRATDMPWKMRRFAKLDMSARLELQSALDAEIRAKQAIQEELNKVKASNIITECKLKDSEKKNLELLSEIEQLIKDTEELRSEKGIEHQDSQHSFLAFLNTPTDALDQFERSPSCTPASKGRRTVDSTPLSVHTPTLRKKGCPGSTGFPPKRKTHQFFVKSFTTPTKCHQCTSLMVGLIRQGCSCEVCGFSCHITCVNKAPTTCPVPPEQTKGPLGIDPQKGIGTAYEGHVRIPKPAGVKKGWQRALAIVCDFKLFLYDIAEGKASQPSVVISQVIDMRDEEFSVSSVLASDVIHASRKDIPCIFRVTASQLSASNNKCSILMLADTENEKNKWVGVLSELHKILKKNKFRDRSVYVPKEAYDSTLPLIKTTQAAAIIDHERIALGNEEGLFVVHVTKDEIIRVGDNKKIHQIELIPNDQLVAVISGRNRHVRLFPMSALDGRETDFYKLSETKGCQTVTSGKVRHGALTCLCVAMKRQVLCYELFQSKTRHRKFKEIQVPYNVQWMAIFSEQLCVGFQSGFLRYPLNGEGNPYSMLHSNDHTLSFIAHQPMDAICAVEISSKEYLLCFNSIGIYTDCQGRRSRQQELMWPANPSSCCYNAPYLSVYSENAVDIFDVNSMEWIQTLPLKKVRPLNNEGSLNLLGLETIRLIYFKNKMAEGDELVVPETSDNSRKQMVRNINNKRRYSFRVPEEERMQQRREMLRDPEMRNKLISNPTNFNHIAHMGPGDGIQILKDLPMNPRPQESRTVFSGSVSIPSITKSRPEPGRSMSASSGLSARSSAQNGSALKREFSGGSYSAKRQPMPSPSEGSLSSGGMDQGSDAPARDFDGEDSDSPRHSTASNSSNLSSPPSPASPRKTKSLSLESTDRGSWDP", "sequence of UniProt P36897 (whole entry, looked up)": "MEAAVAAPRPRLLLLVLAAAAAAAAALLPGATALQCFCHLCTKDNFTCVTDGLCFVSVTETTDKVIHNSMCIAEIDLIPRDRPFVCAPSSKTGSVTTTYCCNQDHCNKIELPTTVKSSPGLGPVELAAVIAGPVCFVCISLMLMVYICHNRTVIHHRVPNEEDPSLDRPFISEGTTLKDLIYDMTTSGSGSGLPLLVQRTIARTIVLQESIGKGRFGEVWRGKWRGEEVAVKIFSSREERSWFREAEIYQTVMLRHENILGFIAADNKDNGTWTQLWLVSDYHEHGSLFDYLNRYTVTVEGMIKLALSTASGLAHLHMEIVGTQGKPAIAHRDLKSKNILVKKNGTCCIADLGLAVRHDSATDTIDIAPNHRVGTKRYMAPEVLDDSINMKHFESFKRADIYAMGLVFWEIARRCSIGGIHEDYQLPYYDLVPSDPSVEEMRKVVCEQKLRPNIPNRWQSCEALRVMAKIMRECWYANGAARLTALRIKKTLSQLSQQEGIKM", "sequence of UniProt P45984 (whole entry, looked up)": "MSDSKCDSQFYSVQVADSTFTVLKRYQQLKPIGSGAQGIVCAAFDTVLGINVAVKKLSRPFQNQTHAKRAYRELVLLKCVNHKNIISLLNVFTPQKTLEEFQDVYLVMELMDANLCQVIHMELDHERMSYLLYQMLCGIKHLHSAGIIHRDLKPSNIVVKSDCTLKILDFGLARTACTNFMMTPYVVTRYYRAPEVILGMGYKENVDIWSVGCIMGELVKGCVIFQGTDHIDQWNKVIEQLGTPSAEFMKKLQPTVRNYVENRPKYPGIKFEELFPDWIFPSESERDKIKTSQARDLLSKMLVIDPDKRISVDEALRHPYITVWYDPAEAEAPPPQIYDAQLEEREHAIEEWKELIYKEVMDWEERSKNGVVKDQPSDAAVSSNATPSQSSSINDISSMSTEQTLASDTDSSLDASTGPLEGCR", "sequence of UniProt Q8IVH8 (whole entry, looked up)": "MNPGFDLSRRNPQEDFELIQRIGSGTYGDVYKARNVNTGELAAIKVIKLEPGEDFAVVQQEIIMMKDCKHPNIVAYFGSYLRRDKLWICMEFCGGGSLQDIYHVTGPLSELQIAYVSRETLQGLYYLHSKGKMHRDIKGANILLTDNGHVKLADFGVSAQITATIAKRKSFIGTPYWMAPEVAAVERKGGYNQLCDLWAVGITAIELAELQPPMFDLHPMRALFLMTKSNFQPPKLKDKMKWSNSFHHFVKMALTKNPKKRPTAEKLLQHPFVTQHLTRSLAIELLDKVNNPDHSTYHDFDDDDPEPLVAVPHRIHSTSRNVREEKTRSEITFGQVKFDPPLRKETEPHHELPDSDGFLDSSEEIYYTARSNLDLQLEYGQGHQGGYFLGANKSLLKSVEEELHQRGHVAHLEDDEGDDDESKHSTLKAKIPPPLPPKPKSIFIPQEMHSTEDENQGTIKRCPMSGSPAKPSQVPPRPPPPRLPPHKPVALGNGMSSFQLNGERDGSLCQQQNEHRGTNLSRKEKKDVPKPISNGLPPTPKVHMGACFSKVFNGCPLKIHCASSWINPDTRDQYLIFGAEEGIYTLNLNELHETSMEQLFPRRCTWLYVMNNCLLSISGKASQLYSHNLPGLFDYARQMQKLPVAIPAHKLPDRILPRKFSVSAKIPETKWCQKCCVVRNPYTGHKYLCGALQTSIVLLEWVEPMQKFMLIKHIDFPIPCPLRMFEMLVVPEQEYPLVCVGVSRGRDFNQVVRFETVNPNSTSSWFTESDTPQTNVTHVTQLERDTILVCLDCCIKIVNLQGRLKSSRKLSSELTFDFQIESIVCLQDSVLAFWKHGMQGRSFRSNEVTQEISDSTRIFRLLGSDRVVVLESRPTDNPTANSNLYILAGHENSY", "sequence of UniProt Q9HBY8 (whole entry, looked up)": "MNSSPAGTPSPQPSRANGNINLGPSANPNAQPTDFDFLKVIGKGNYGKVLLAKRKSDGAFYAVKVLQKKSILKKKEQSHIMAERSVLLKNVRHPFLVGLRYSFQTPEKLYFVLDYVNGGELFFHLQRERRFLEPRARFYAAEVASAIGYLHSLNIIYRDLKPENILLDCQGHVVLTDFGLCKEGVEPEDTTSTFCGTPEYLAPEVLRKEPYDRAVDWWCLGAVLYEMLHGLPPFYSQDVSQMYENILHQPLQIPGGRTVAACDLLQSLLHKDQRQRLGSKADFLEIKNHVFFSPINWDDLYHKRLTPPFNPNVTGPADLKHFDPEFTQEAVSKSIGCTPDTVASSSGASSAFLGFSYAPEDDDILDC"}
{"data": "Set 1", "target": "Calcium/calmodulin-dependent protein kinase type II subunit alpha (CAMK2A, Homo sapiens, UniProt Q9UQM7)", "effect on": "enzyme activity", "mode": "inhibitor", "concentration": "10 µM", "sequence of UniProt Q9UQM7 (whole entry, looked up)": "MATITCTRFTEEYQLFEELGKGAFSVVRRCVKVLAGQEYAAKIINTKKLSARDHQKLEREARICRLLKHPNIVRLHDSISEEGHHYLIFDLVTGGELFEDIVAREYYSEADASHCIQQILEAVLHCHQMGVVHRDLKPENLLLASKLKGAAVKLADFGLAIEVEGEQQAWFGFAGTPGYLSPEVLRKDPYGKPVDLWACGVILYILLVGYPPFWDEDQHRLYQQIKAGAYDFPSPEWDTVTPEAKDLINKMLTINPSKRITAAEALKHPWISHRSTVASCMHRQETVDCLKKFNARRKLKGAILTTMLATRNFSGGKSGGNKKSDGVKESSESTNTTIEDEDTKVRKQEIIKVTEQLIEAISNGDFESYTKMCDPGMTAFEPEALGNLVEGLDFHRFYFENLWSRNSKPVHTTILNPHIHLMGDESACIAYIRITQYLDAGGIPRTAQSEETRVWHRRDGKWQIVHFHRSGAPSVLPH"}
{"SMILES": "CCOC(=O)c1ccc(O)cc1", "inhibition [%]": 5}
{"SMILES": "CNS(=O)(=O)Cc1ccc2[nH]cc(CCN(C)C)c2c1", "inhibition [%]": -7}
{"SMILES": "C[C@]12CCC(=O)C=C1CC[C@@H]1[C@@H]2C(=O)C[C@@]2(C)[C@H]1CC[C@]2(O)C(=O)CO", "inhibition [%]": 26}
{"SMILES": "Cc1ccn(C)n1", "inhibition [%]": 0}
{"SMILES": "COc1ccc(-c2coc3cc(O)c(OC)c(O)c3c2=O)cc1", "inhibition [%]": 25}
{"SMILES": "Cc1c[nH]c2ccccc12", "inhibition [%]": -49}
{"SMILES": "O=c1cc(O)cc(/C=C/c2ccc(O)c(O)c2)o1", "inhibition [%]": -1}
{"SMILES": "CCCCCCNC(=O)n1cc(F)c(=O)[nH]c1=O", "inhibition [%]": 3}
{"SMILES": "C/C1=C\\C[C@]2(C(C)C)CC[C@@](C)(O2)[C@@H](O)CC/C(C)=C/CC1", "inhibition [%]": -20}
{"SMILES": "COc1ccc(C)cc1", "inhibition [%]": -27}
{"SMILES": "CC(C)NCC(O)COc1ccc(COCCOC(C)C)cc1 (stereo not shown)", "inhibition [%]": -4}
{"SMILES": "C=C[C@H]1[C@H](O[C@@H]2O[C@H](CO)[C@@H](O)[C@H](O)[C@H]2O)OC=C2C(=O)N3CCc4c([nH]c5ccccc45)[C@@H]3C[C@H]21", "inhibition [%]": -15}
{"SMILES": "CC(C)CCC[C@@H](C)[C@H]1CC[C@H]2C3=C(CC[C@]12C)[C@@]1(C)CC[C@H](O)CC1=CC3", "inhibition [%]": -19}
{"SMILES": "COc1cc(O)cc(O)c1C(=O)/C=C/c1ccc(O)cc1", "inhibition [%]": -20}
{"SMILES": "CC(C)CC1NC(=O)C(Cc2ccc(O)cc2)NC1=O (stereo not shown)", "inhibition [%]": -118}
{"SMILES": "CCOC(=O)CCC(=O)O[C@H]1[C@H](O[C@@H]2[C@@H](C)[C@H](O[C@H]3C[C@@](C)(OC)[C@@H](O)[C@H](C)O3)[C@@H](C)C(=O)O[C@H](CC)[C@@](C)(O)[C@H](O)[C@@H](C)C(=O)[C@H](C)C[C@@]2(C)O)O[C@H](C)C[C@@H]1N(C)C", "inhibition [%]": -3}
{"SMILES": "CCN(CC)c1ccc2cc(-c3nc4ccccc4s3)c(=O)oc2c1", "inhibition [%]": -13}
{"data": "Set 2", "target": "Serine/threonine-protein kinase Chk1 (CHEK1, Homo sapiens, UniProt O14757)", "effect on": "enzyme activity", "mode": "inhibitor", "concentration": "0.5 µM", "baseline": "control", "Construct (O14757 1-476)": "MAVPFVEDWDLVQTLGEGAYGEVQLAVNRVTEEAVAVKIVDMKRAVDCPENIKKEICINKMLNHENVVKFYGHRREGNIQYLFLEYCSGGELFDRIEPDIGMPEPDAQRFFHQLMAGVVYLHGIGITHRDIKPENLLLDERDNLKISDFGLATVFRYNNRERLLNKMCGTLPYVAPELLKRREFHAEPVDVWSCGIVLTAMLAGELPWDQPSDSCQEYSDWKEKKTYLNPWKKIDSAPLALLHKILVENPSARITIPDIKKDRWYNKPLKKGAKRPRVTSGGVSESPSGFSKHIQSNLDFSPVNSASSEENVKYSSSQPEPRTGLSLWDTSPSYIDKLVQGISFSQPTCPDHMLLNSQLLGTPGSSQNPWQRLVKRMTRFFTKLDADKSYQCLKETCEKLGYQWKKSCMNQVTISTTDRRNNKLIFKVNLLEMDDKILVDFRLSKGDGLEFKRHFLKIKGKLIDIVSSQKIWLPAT"}
{"Structure (SMILES)": "CCN(CC)C(=O)c1ccc(Nc2nc(OCC3CCCCC3)c3[nH]cnc3n2)cc1", "remaining activity [%]": 66.1}
{"Structure (SMILES)": "O=C1C(Cl)=C(N2C(=O)CCC2=O)C(=O)c2ccccc21", "remaining activity [%]": 111}
{"Structure (SMILES)": "Nc1cccc(-c2cc3c(Oc4cccc(O)c4)ncnc3[nH]2)c1", "remaining activity [%]": 66.2}
{"Structure (SMILES)": "O=C(Nc1cccc(Nc2nccc(Nc3cccc(C(F)(F)F)c3)n2)c1)C1CC1", "remaining activity [%]": 96.6}
{"Structure (SMILES)": "Cc1nc2cc3nc(-c4cccs4)cnc3cc2n1C", "remaining activity [%]": 99.8}
{"Structure (SMILES)": "Ic1cccc(CSc2nnc(-c3ccncc3)o2)c1", "remaining activity [%]": 96.3}
{"Structure (SMILES)": "CCN(CC)CCNC(=O)c1c(C)[nH]c(/C=C2\\C(=O)Nc3ccc(Cl)cc32)c1C", "remaining activity [%]": 15.1}
{"Structure (SMILES)": "COc1cc2ncnc(Nc3ccc(O)c(Br)c3)c2cc1OC", "remaining activity [%]": 92.8}
{"Structure (SMILES)": "COc1cc2c(cc1OC)-c1[nH]nc(Nc3cccc(F)c3)c1C2", "remaining activity [%]": 92.4}
{"Structure (SMILES)": "Cc1cn(-c2cc(NC(=O)c3ccc(C)c(Nc4nccc(-c5cccnc5)n4)c3)cc(C(F)(F)F)c2)cn1", "remaining activity [%]": 90.9}
{"Structure (SMILES)": "O=C1c2ccccc2-c2n[nH]c3cccc1c23", "remaining activity [%]": 72.2}
{"Structure (SMILES)": "CN(C)C[C@H]1CCn2c(c(C3=C(c4cn(C)c5ccccc45)C(=O)NC3=O)c3ccccc32)C1", "remaining activity [%]": 69.8}
{"Structure (SMILES)": "CCOc1nc(NC(=O)Cc2cc(OC)ccc2OC)cc(N)c1C#N", "remaining activity [%]": 151}
{"Structure (SMILES)": "O=C(NC(NC(=S)Nc1ccc(F)c([N+](=O)[O-])c1)C(Cl)(Cl)Cl)C(c1ccccc1)c1ccccc1 (stereo not shown)", "remaining activity [%]": 100}
{"Structure (SMILES)": "COc1cc2ncnc(Nc3cccc(Cl)c3)c2cc1OC", "remaining activity [%]": 93.7}
{"Structure (SMILES)": "CN([C@@H](Cc1ccc(OS(=O)(=O)c2cccc3cnccc23)cc1)C(=O)N1CCN(c2ccccc2)CC1)S(=O)(=O)c1cccc2cnccc12", "remaining activity [%]": 99.5}
{"Structure (SMILES)": "Cn1nc2c3c(cccc31)C(=O)c1ccccc1-2", "remaining activity [%]": 93.7}
{"Structure (SMILES)": "c1ccc(-c2[nH]ncc2-c2ccnc3ccccc23)nc1", "remaining activity [%]": 99.7}
{"Structure (SMILES)": "c1ccc(-c2cnc(Nc3ccc(OCCN4CCCC4)cc3)s2)cc1", "remaining activity [%]": 86.6}
{"Structure (SMILES)": "Cc1cc2ncc(-c3ccccc3)nc2cc1C", "remaining activity [%]": 94.2}
{"Structure (SMILES)": "O=c1cc(-c2cccc3c2Sc2ccccc2S3)oc(N2CCOCC2)c1", "remaining activity [%]": 109}
{"Structure (SMILES)": "N#Cc1c(NC(=O)c2cccc3ccccc23)sc2c1CCCC2", "remaining activity [%]": 104}
{"data": "Set 3", "Structure (SMILES)": "CN1CCN(C(=O)c2ccc(NC(=O)Nc3ccc(N(C)c4ccnc(Nc5ccc(CS(C)(=O)=O)cc5)n4)cc3)cc2)CC1", "concentration": "1 µM"}
{"target": "EPHB2 (Homo sapiens, UniProt P29323)", "assay": "competitive binding panel", "how to read": "baseline: vehicle", "remaining binding [%]": 76}
{"target": "PRKAA2 (Homo sapiens, UniProt P54646)", "assay": "competitive binding", "setting": "AMPK-alpha2", "remaining binding [%]": 87}
{"target": "SRPK3 (Homo sapiens, UniProt Q9UPE1)", "assay": "competitive binding panel", "how to read": "baseline: vehicle", "remaining binding [%]": 7.7}
{"target": "CDC42BPA (Homo sapiens, UniProt Q5VT25)", "assay": "competitive binding", "setting": "MRCKA", "remaining binding [%]": 89}
{"target": "BLK (Homo sapiens, UniProt P51451)", "assay": "competitive binding panel", "how to read": "baseline: vehicle", "remaining binding [%]": 87}
{"target": "LYN (Homo sapiens, UniProt P07948)", "assay": "competitive binding panel", "how to read": "baseline: vehicle", "remaining binding [%]": 71}
{"target": "MAPK9 (Homo sapiens, UniProt P45984)", "assay": "competitive binding", "setting": "JNK2", "remaining binding [%]": 19}
{"target": "TLK2 (Homo sapiens, UniProt Q86UE8)", "assay": "competitive binding panel", "how to read": "baseline: vehicle", "remaining binding [%]": 100}
{"target": "BMX (Homo sapiens, UniProt P51813)", "assay": "competitive binding panel", "how to read": "baseline: vehicle", "remaining binding [%]": 59}
{"target": "SLK (Homo sapiens, UniProt Q9H2G2)", "assay": "competitive binding panel", "how to read": "baseline: vehicle", "remaining binding [%]": 8.9}
{"target": "TGFBR1 (Homo sapiens, UniProt P36897)", "assay": "competitive binding panel", "how to read": "baseline: vehicle", "remaining binding [%]": 88}
{"target": "SGK2 (Homo sapiens, UniProt Q9HBY8)", "assay": "competitive binding panel", "how to read": "baseline: vehicle", "remaining binding [%]": 73}
{"target": "PRKG2 (Homo sapiens, UniProt Q13237)", "assay": "competitive binding panel", "how to read": "baseline: vehicle", "remaining binding [%]": 100}
{"target": "EIF2AK2 (Homo sapiens, UniProt P19525)", "assay": "competitive binding", "setting": "PRKR", "remaining binding [%]": 100}
{"target": "MAP4K3 (Homo sapiens, UniProt Q8IVH8)", "assay": "competitive binding panel", "how to read": "baseline: vehicle", "remaining binding [%]": 25}
{"data": "Set 4", "cell line": "sample G normal colon organoid", "method": "CellTiter-Glo", "concentration": "1 µM", "time": "4 days", "baseline": "DMSO"}
{"SMILES": "NS(=O)(=O)c1cc(NC(=O)Cc2ccccc2)ccc1Oc1cccc(Cl)c1", "viability": "113%"}
{"SMILES": "NS(=O)(=O)c1cc(NC(=O)C2(c3ccccc3Cl)CC2)ccc1Oc1cccc(Cl)c1", "viability": "122%"}
{"SMILES": "Cc1c(NC(=O)c2cc(C(N)=O)nc3cc(F)ccc23)c(C(F)(F)F)nn1Cc1ccc(C#N)cc1", "viability": "21.5%"}
{"SMILES": "CN(C)c1ncnc(-c2ccc3nc(Nc4cc(CN5CCN(C(=O)CC(F)(F)F)CC5)ccn4)[nH]c3c2)c1Cl", "viability": "93.5%"}
{"SMILES": "C[C@H](c1ccc(F)cc1)N(Cc1ccc(Cl)c(C(=O)O)c1)C(=O)c1cnc2ccccc2c1", "viability": "112%"}
{"SMILES": "C[C@@]1(Cc2ccc(C#N)cc2)C(=O)N(c2cc(Cl)cc(Cl)c2)c2ncc(C(=O)NC3(c4nc(C5CCC5)no4)CC3)n21", "viability": "128%"}
{"SMILES": "CCCCN(Cc1ccccc1)C(=O)c1ccc(S(=O)(=O)Nc2ccccc2)cc1", "viability": "94.8%"}
{"SMILES": "O=C(Nc1cccnn1)N1CCC(=Cc2cccc(Oc3ccc(C(F)(F)F)cn3)c2)CC1", "viability": "96.4%"}
{"SMILES": "C[C@H](NC(=O)c1cnc2n1[C@](C)(Cc1ccc(C#N)cc1)C(=O)N2c1cc(Cl)c(F)c(Cl)c1)C(=O)NC1(c2ccccn2)CC1", "viability": "122%"}
{"SMILES": "CN(c1ccnc(CNc2nc(Nc3ccc4c(c3)CC(=O)N4)ncc2C(F)(F)F)n1)S(C)(=O)=O", "viability": "108%"}
{"SMILES": "C[C@H](c1ccnc(Nc2nc3ccc(-c4cc(N(C)C)ncn4)cc3[nH]2)c1)N1CCN(C(=O)CC(F)(F)F)CC1", "viability": "91.9%"}
{"SMILES": "CN(C)C(=O)Cn1cc(-c2nc(C3(c4ccc(-c5cnc(N)nc5)cc4)CC3)no2)cn1", "viability": "106%"}
{"SMILES": "C[C@H](c1ccc(F)cc1)N(Cc1cccc(C(=O)O)c1)C(=O)c1cnc2ccccc2c1", "viability": "114%"}
{"note": "Some of these lines once more (set 3):"}
{"target": "TLK2 (Homo sapiens, UniProt Q86UE8)", "assay": "competitive binding panel", "how to read": "baseline: vehicle", "remaining binding [%]": 100}
{"target": "BMX (Homo sapiens, UniProt P51813)", "assay": "competitive binding panel", "how to read": "baseline: vehicle", "remaining binding [%]": 59}
{"target": "SLK (Homo sapiens, UniProt Q9H2G2)", "assay": "competitive binding panel", "how to read": "baseline: vehicle", "remaining binding [%]": 8.9}
{"target": "TGFBR1 (Homo sapiens, UniProt P36897)", "assay": "competitive binding panel", "how to read": "baseline: vehicle", "remaining binding [%]": 88}
